Measured values from different studies.
Each numbered part is a random draw from the data of one study; scales do not carry over between parts. Substitutions count along the parent as printed.

Study 1 — method: universal PBM; molecule type: double-stranded DNA, one strand shown; medium: in vitro; tested at: not given; reading: higher = stronger binding
Target: Sal-like protein 4, full length isoform B (SALL4, Homo sapiens, UniProt Q9UJQ4-2, residues 1-616)
Notes: 8-mer, flanks averaged, mean of replicates
Construct (chain): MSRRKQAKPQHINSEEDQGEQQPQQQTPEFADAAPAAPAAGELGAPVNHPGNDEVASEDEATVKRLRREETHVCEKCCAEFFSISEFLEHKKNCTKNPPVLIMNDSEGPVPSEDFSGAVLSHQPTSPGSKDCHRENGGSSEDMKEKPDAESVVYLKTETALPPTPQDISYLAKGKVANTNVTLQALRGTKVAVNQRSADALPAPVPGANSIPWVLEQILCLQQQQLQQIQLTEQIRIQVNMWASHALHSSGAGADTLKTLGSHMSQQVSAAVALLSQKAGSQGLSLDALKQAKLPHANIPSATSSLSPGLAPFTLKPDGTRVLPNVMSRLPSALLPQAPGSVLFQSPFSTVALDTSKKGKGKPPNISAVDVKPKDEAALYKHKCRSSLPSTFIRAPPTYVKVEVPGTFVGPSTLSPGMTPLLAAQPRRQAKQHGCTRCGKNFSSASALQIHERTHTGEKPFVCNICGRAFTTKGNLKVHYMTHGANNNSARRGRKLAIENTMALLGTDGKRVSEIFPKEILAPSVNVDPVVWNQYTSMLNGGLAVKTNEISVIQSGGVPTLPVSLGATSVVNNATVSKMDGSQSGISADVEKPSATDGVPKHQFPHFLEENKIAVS
Oligonucleotide | E-score
CTCACAAA | 0.137
CCGAAGCG | -0.276
ATTACCGG | -0.0232
AGAGACGA | 0.00102
CCTGGGGA | -0.287
CACAATGC | -0.0578
ACAGTCCT | -0.0284
GAAGGCAA | 0.0697
CAATGGAC | 0.0313
ATCATTGA | 0.232
GGCGGGAC | -0.319
ACATACTG | -0.00527
GCCCATCA | -0.18
GACGAGCC | -0.297
GCATGGTA | -0.0312
ATGACGGA | 0.0568
TGACCCAA | 0.0249
CTTCAGAC | -0.0854
CAGAATCC | -0.1
GAGTCAAA | 7e-05
GTGAAATA | 0.199
CCACCGCG | -0.251
GGGAGCAC | -0.217

Study 2 — method: RNA Bind-n-Seq; molecule type: RNA; medium: in vitro; tested at: 365 nM; reference: no-protein control; reading: higher = stronger binding
Target: RNA binding protein fox-1 homolog 2, RRM domain, GST-SBP tag (RBFOX2, Homo sapiens, UniProt O43251-10, residues 100-194)
Notes: natural RNA segment, single round, ends assumed
All sequences stand within: GGGAGUUCUACAGUCCGACGAUC … UGGAAUUCUCGGGUGCCAA
Residues (chain): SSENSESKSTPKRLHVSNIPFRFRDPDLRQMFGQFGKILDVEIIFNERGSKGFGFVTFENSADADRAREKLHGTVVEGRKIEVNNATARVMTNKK
Oligonucleotide | RBNS enrichment (R)
GCAAAUGUGUGUAUUUUAAGUGAGUUCCUGCGAGUCAUACACUGCGAUGAUGCUCCGCCUUUACCCGUUCAGUUGGGAGCUUAUUGUGAGAUUGGAUCAUUUCCUUUUGA | 0.525
CCAGUGUGUCACCAGCCCUCAGCAGAAACCGAAAGAGAAAGAACGGAAACACGGAGUUUGGGCUCUGUUGGCUAAGGUGUAACACUUAAAGCAAUUUUCUCCCAUUGUGC | 0.444
GCCUAUAAGGCAGUGUUGGUCCCCUUCUAAUAUUGGCCUCAUAAAGGGGUUCCACUGUACUUUCCGCAUAUUACUGUGUUGUUGUUUUCCUUUGUGGAUAUAUAAGCAAA | 0.508
AUCUUAGCCUGGCCCAGCCUGGGCUGCCUGGACAGGCUCUCCUGGCACAUUCCUGUACCCUUUAAAUGGGAAAGCAGUUAACGGAAGGGCCACAGGGUCAGAUGAGGGCU | 0.284
UUCUCAAAGCCUGUCUUCAAAAAAGCUGAGGCAAAAUGCUAAUAUUAAUUCAGCCUGGCCUCGAAACACUGUCCUGAGCACCCGUCAACUCUGAGAGGAAGUGUGGAGAG | 0.499
GUUCACUGUCCAUAUAUAUGAUUUUACGGAAUUAUGAAUUUUUCUGAUGAGUGUUGUAUAGAUGAUUUGAAUUGAUAAAAGUAUUAGGGAUGAGGUUUGUACUUUCCUGA | 0.517
AUCCACCUGCCUCUGCCCCCUGAUGCUGCCACCAUACCCAGCUGGUUUUAUCUUUUAAUGAUAACUUAGGUGCCCUUGGUGGGCUUUCCAAACCUGGUUACUCAACGUUA | 0.392
GAUCCCGGGAGCCUUGCCGCACUGCCUUGUGGGUGGCUUGGCGCUCGUGAUUGCUUCCUGUGAACGCCUCCCAAGGACGAGCCCAGUGUAGUUGUGUGGCGUGAACUCUG | 1.41
CUUAACUUGAUUGAACUGUCUAGGAACUUUACAGAUUGUUCUGCAGUUCUCUCUUCUUUUCCUCAGGUAGGACAGCUCUAGCAUUUUCUUAAUCAGGAAUAUUGUGGUAA | 0.446
CCUCCCCCCGGCUUCGUGCCCUUUGGAUGACACAAAAACUUCAUACACCAGUGACUGUCGGGCAGGGCAAGCGCCCUGGUCACAGACCCCAGAAACAUGACCUCCCACUG | 0.289
UAGUAAGCUUAUCCGAAGCCUACAGUGAGAAACCAUGUAGGCUUCUUGCCCGUUUCUAAUCACCAUUCUGUGUGUCUUCUGUUUUUCUUGAUUUUUUUCAAGUGUGGUAU | 0.396
GCCUAGUCUCCCUCUCCCACUCCUUCUGAUGACACUAGCAAUGCAUUCCAUCUGACCUGACUUUAUCAUAGAGGCAAAAUUGUUCAGAACACUGGCUGGAGAUGGGGAGA | 0.629

Study 3 — method: protein binding microarray; molecule type: double-stranded DNA, one strand shown; medium: in vitro; tested at: not given; reference: not given; reading: higher = stronger binding
Target: Histone acetyltransferase KAT6A, winged helix 2, GST fusion (KAT6A, Homo sapiens, UniProt Q92794, residues 85-181)
Notes: 8-mer, flanks averaged, mean of 2 arrays, mostly near background
Construct (chain): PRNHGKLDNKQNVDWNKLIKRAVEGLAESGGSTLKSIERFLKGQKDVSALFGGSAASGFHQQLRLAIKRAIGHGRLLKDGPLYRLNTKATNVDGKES
Oligonucleotide | E-score
CGTGGGGA | 0.155
CAGGACTG | -0.151
CCATGTCG | 0.0349
GTGGGTAA | -0.0775
AAATAGGG | -0.0196
CCTCAACG | -0.0784
AATGTCCA | -0.0422
GCTAAGCC | -0.0315
ATACTGGG | -0.106
GTGCTTGA | 0.117
CACTGGCG | 0.162
GATCCAGA | 0.169
CCCCATCC | 0.139
ATGCGATC | 0.105
CTAGGAAA | -0.0347
ATTCTGTA | -0.0436
AACGCTTC | -0.0652
AGAATTGG | -0.0509

Study 4 — method: protein-binding microarray; molecule type: double-stranded DNA, one strand shown; medium: in vitro; tested at: 2540 nM top; notes: 60-bp whole probe; with: salmon DNA 0.4 mg/ml; reference: random background probes; reading: higher = stronger binding; all sequences stand within: GCCTAGCAC … GTCTTGATTCGCTTGACGCTGCTG
Target: Interferon regulatory factor 3, full length, phosphomimetic (IRF3, Homo sapiens, UniProt Q14653, residues 1-427, S386D/S396D/S398D/S402D/T404D/S405D)
UniProt Q14653, sequence (whole entry, unmodified, looked up): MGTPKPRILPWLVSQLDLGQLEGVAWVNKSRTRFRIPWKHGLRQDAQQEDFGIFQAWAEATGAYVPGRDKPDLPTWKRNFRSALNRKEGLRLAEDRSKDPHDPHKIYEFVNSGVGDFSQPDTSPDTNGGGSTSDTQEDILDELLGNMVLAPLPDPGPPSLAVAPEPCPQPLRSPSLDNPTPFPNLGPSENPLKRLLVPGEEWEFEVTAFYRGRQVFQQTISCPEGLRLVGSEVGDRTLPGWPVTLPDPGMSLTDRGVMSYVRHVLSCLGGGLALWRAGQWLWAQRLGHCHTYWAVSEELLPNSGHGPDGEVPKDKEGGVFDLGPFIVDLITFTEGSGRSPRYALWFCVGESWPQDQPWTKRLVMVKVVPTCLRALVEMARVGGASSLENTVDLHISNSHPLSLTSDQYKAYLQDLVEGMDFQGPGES
Oligonucleotide | fitted relative affinity [z-score]
GACGGTATCGACACGGGGGACGTGCTA | 0.606
GATGAACTGGGGTATCGAGACGTGCTA | -0.716
GACTAACTGGGGTTTCGAGACGTGCTA | 0.545
TTAGATATCAGGACTGGATTAGTGCTA | 0.27
GACGATATCGGGTTTCGAAACGTGCTA | 2.33
TTAGGTATCGTTCTCGGTTAGTGCTAG | 4
GACGAACTGGGGTTTCGTGACGTGCTA | -0.0385
ATTGCTTTCTCTTTCACTACGTGCTAG | 3.98
TTAGATATCGCGTTTCGATTAGTGCTA | 1.52
TCACCTCTCACGCATCTGACTGTGCTA | 0.291
TTAGATATCGGGTTTCGATAAGTGCTA | 1.67
GACGGTATCGACTACCGGGACGTGCTA | 0.56
GAAAATGCCCTTTTGGTGAGGTGCTAG | 1.85
GGTCTTCTGGGCTGTTTAGTCGTGCTA | -0.0112
GACGATATCAGACTGGAGATGTGCTAG | 0.175
CCTAATCTCAGCCTCCGTCAGTGCTAG | 0.856
TTAGAACTGAATTTCGATTAGTGCTAG | 0.784
GACGATAGCAGTTTCGAGACGTGCTAG | 1.63
TTAGGTTTGCTTTTCCTTTAGTGCTAG | 2.84
GACGAACCGAGTTTCGAGACGTGCTAG | 1.47
TTAGGTCTCCTTTTCCATTAGTGCTAG | 5.02
GACGAACTGAGCCTCGAGACGTGCTAG | -0.508
GACGATTTCGGGTTACGAGACGTGCTA | 2.41
TCACCCCTCTCTTTCCAACTGTGCTAG | 1.6
TTAGGGTTCGGACTGGGTTAGTGCTAG | -0.122

Study 5 — target: CCNA2, cyclin fold, Cln2 fusion (human); method: yeast growth competition, sequencing; medium: yeast; notes: strong parent motif; reference: not given; reading: higher = stronger binding
Starting sequence: CDC6 docking peptide (human); TLKGRRLVFDNQL; partner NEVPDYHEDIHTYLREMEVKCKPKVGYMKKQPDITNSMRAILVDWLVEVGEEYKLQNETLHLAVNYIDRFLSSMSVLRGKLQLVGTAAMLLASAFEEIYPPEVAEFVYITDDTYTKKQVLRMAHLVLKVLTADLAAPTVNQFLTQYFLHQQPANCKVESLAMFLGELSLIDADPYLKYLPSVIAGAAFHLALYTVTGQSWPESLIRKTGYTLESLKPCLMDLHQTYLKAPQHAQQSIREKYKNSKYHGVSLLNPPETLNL
Substitution | normalised enrichment score
TLKGRRLVIDNQL [F9I] | 0.823
TLKGRRLLFDNQL [V8L] | 2.8
TLKGRRLVFDNQK [L13K] | 2.24
TLKGRRFVFDNQL [L7F] | 0.618
TLKGQRLVFDNQL [R5Q] | -0.273
TLKGRRLVHDNQL [F9H] | 1.1
TLKGRRLVRDNQL [F9R] | 0.442
TGKGRRLVFDNQL [L2G] | 2.61
TLKVRRLVFDNQL [G4V] | 1.78
TYKGRRLVFDNQL [L2Y] | 4.19
TLKGRRLVCDNQL [F9C] | 0.324
TLKGRRLVFENQL [D10E] | 1.81
TLKGRYLVFDNQL [R6Y] | 0.614
TLKGRQLVFDNQL [R6Q] | 1.36
TLKGRHLVFDNQL [R6H] | 0.311
TLVGRRLVFDNQL [K3V] | 3.74
TLKGRRLVFDNML [Q12M] | 3.92
TLKGRRLYFDNQL [V8Y] | 2.81

A few entries again (study 4):
Oligonucleotide | fitted relative affinity [z-score]
GACGGTATCGACTACCGGGACGTGCTA | 0.56
TTAGAACTGAATTTCGATTAGTGCTAG | 0.784
GACGATATCGGGTTTCGAAACGTGCTA | 2.33
TCACCCCTCTCTTTCCAACTGTGCTAG | 1.6
ATTGCTTTCTCTTTCACTACGTGCTAG | 3.98
TTAGGGTTCGGACTGGGTTAGTGCTAG | -0.122
GGTCTTCTGGGCTGTTTAGTCGTGCTA | -0.0112
GACGAACTGAGCCTCGAGACGTGCTAG | -0.508
GACGAACTGGGGTTTCGTGACGTGCTA | -0.0385
TTAGGTTTGCTTTTCCTTTAGTGCTAG | 2.84
TCACCTCTCACGCATCTGACTGTGCTA | 0.291
GACGATATCAGACTGGAGATGTGCTAG | 0.175
GACGAACCGAGTTTCGAGACGTGCTAG | 1.47
TTAGGTCTCCTTTTCCATTAGTGCTAG | 5.02
